Experimental data from different studies.
Every numbered part comes from another study and shows a few of its results, in no order. Substitutions count along the parent as printed.

Study 1
Target: Histone acetyltransferase KAT6A, both winged helices, GST fusion (KAT6A, Homo sapiens, UniProt Q92794, residues 1-181)
Method: protein binding microarray
Molecule type: double-stranded DNA, one strand shown
Medium: in vitro
Concentration: not given
Setting: 8-mer, flanks averaged, mean of 2 arrays, mostly near background
Baseline: not given
Direction: higher = stronger binding
Quantity: E-score
Residues (chain): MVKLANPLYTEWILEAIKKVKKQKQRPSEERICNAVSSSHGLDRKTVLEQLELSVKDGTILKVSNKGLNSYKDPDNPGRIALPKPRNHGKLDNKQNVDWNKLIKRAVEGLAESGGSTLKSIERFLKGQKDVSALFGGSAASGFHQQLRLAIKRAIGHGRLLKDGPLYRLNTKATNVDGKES
ACTAGCCG: 0.232
ACTTCAGG: -0.107
ATCAAAAG: 0.0445
ACATAAAG: -0.202
TATGTTCA: -0.0066
AAACGGCG: 0.243
CCTGTTCA: -0.232
GCGCCATA: 0.21
TGCATAAA: -0.161
CACCGGAA: 0.119
ATCGGTAA: 0.0837
GAAATTTA: -0.127
AATTTACG: 0.0672
TCTGACAA: -0.0853
CATCTCGG: -0.018
CAATGGTG: -0.156

Study 2
Target: Prothrombin, mature alpha-thrombin (F2, Homo sapiens, UniProt P00734)
Method: aptamer microarray, sandwich
Molecule type: DNA with 2'F-ANA
Medium: in vitro
Concentration: 200 nM
Setting: whole 15-mer aptamer, many near background
Together with: Cy3 exosite-II aptamer, 400 nM
Direction: higher = stronger binding
Quantity: mean fluorescence intensity
Sequence: GGTTGGTGTGGTTGG
2'F-ANA at 2 3 4 5 6 7 9 12 14: 67.5 a.u.
2'F-ANA at 2 6 7 8 9 11 14: 131 a.u.
2'F-ANA at 1 4 5 10 11 14 15: 45.1 a.u.
2'F-ANA at 1 2 3 8 15: 295 a.u.
2'F-ANA at 1 4 5 9 10 12 13 14 15: 46.3 a.u.
2'F-ANA at 2 4 9 10 14 15: 63.2 a.u.
2'F-ANA at 2 6 8 11 14 15: 113 a.u.
2'F-ANA at 2 4 5 6 8 12 13 14 15: 51.7 a.u.
2'F-ANA at 1 2 6 11 12 14 15: 67.3 a.u.
2'F-ANA at 5 7 9 10 11 12 13 15: 49.8 a.u.
2'F-ANA at 1 2 3 4 5 7 8 9 10 11 15: 81.6 a.u.
2'F-ANA at 1 2 3 4 6 7 9 15: 130 a.u.
2'F-ANA at 1 3 6 7 8 9 11 12 14 15: 112 a.u.
2'F-ANA at 1 2 7 8 9 12 14: 72.1 a.u.
2'F-ANA at 2 5 6 7 8 9 10 12 15: 53.3 a.u.
2'F-ANA at 1 2 6 8 9 10 12 14 15: 51.4 a.u.
2'F-ANA at 6 7 8 9 12 14 15: 217 a.u.
2'F-ANA at 4 7 12 14 15: 139 a.u.
2'F-ANA at 1 4 6 7 8 10 13: 49.8 a.u.

Study 3
Target: RNA binding protein fox-1 homolog 2, RRM domain, GST-SBP tag (RBFOX2, Homo sapiens, UniProt O43251-10, residues 100-194)
Method: RNA Bind-n-Seq
Molecule type: RNA
Medium: in vitro
Concentration: 365 nM
Setting: natural RNA segment, single round, ends assumed
Baseline: no-protein control
Direction: higher = stronger binding
Quantity: RBNS enrichment (R)
Shared flanks, not repeated: GGGAGUUCUACAGUCCGACGAUC … UGGAAUUCUCGGGUGCCAA
Residues (chain): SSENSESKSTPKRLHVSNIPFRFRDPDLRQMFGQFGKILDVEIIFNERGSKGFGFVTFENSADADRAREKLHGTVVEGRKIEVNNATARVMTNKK
AAGGCACAAAUUAUUUCAAAGGAGUUGCUCUAAAAACAGAUUAUUUCCCGGAAAAAAAAAAAUGCAAUAAUGGGAAUGAUUUGGGGCUUUUAUUUUUUAUUUUAAAAGAA: 0.711
GAGUAGAGAGCAAGGGAAGUGGUUCUUAGAUGGUGAUCUGGGAUUAGGCCCUCAAGACCCUUUUGGGUUUCUGCCCUGCCCACCCUCUGGAGAAGGUGGGCACUGGAUUA: 0.413
CAAAUCUUGGUCUAUGAGGUCUACACCAAUAACACCCUACUCUGGAAUGGUAACAGAGCCAGCGCUGAAGUCUCCUUUCUUCCUCCCAUCUGGAAGAACAUCAAGAUAUC: 0.326
AUGAGCUGAAUCAGCAUCUCCUCCUGAGUCCCAGGGCCCCUGCAGUUCCCAGUCUCUUCUGUCCUGCAGCCCUUGCCUCUUUCCCACAGGUUCCACUUUAUAUCCACCUU: 0.442
GAAUAGGGAUCUGUGGUAGCCAGUGUUCCUAUGUUCUGCUAGUACCUGGGUCACCAGCCAUAGGGUACAGCCAGCCCCAGUGUGUGGUCUUGUUGGCCUGCUGGGUAGAA: 0.853
AGGUCAUCAAAAUAAUUUUUGUGUAUAAGGGAAUUUACCUUGCUUACCUUACUAGUAUGACUAUUAUCUUGACUUCUGGUAAUUUAUGUUCACUAUUCCAUUUGUGAAGU: 0.56
CCAAAACUUUGACCUGAAUCAUGUGGAUUUGUCCCAAGAUUAUGCUAGAUGCACCAAGCAUGGCCCAAAUUGGUUCUUUUUUAAAUCCCAUGGGGGAAGUGCAGGCUCCU: 2.45
UUAAGUAAUCAUUUAUUAAGACAGAAUUUUGUAUAAACUAUUUAUUGUGCUCUCUGUGGAACUGAAGUUUGAUUUAUUUUUGUACUACACGGCAUGGGUUUGUUGACACU: 1.26
GAUGUUUUAUAUAUAGAGAGUAGUCUCAUUAGUUUUUGUUACUGUAAUGUUUGAAGUCUCAAAUGCACCGUAUUACGGUAAAUAACAUGGUUUUGAAAACUUUUUUUUAU: 0.758
CUGAUAUGCCACAUAGGAUGCUCCAAAGCCCCAAGACAUUGGAGUUUGGCUCAAGAGCCUUUAUUUGGCCUGUUUGCCUUAAUUCUAUUACAUAGCAUACCUGUAUUUCA: 0.851
GACCCUCUGGGAGGAAGCUGCCACACACAAGGACUCUGGAAGUAUCCAGAUGUGAGCCCAGCCAGGGUCCUAUGGUUCCAAAUCUGAAGAAAAGGUUUUUCACACACUCC: 0.407
ACUGACAGGUACCUUAGUUCUGUGUUCAUGUGGCCCUGACCCUUCCUUCAACCACACCUGGUCUCUUAGAACAUUGUGAACCUAACCUGCACUUGUGUCUCUCAUUUCCU: 0.439

Study 4
Target: CCNB1, cyclin fold, Cln2 fusion (human)
Method: yeast growth competition, sequencing
Medium: yeast
Setting: weak parent motif
Baseline: not given
Direction: higher = stronger binding
Quantity: normalised enrichment score
Starting sequence: SAMHD1 docking peptide (human); ASKSRVQLFKDDP
D11E: 0.366
K10Y: -0.399
V6D: -0.186
Q7S: -0.000278
K3D: 0.251
F9H: 0.465
L8H: -0.166
V6R: 0.237
S2V: 0.597
S4E: 0.116
D12A: -0.0197
S4R: 0.657
S4M: 0.603
Q7M: -0.195
K10T: 0.339
D11S: 0.85
F9G: -0.0544
Q7G: 0.0994
R5Y: 0.174
F9D: 0.338
K10D: 0.266
V6M: 0.228
D12V: 0.674
S4P: 0.0649
S4G: 0.0239

Study 5
Target: Interferon regulatory factor 5, full length, phosphomimetic (IRF5, Homo sapiens, UniProt Q13568-2, residues 1-514, K96S/S451D/S453D/S456D/S462D)
Method: protein-binding microarray
Molecule type: double-stranded DNA, one strand shown
Medium: in vitro
Concentration: 250 nM
Setting: 60-bp whole probe
Together with: salmon DNA 0.4 mg/ml
Baseline: random background probes
Direction: higher = stronger binding
Quantity: log fluorescence
Shared flanks, not repeated: GCCTAGCAC … GTCTTGATTCGCTTGACGCTGCTG
TCATCTTTCCAACTCTGACTGTGCTAG: 0.425 z-score
TCAGTTCTGATCCTTCCCACTGTGCTA: 0.323 z-score
GACGAACTGGAGTATCGAGACGTGCTA: 0.952 z-score
GACGAACTTGGGACTGGAGACGTGCTA: -0.389 z-score
GACGATTTTAGTATCGAGACGTGCTAG: 3.37 z-score
TTTGAACTGGGGACTGGATTAGTGCTA: -0.116 z-score
GGCGATTTCAGTCTCGAGACGTGCTAG: 1.34 z-score
TTTTCTCTCCCATTCTGAATGTGCTAG: 1.61 z-score
GACGATTTCAGGTCCGAGACGTGCTAG: 0.408 z-score
TTTTCATTATTGTCTCCCCCAGTGCTA: 2.34 z-score
GACGGTAACGGGTATCGGGACGTGCTA: 0.501 z-score
GACGGTTTCCTTTCCCTAACGTGCTAG: 1.94 z-score
TTTGGTTTCGACTATCGGTTAGTGCTA: 9.72 z-score
TAACTTTCCAATTGTCCTTTCGTGCTA: 1.98 z-score
TTAGATATCGGGCCTGGATTAGTGCTA: 0.759 z-score
GACGTTTTCGGGTTTCGGGACGTGCTA: 6.38 z-score
GACGGTTTCGGGTCCGGGACGTGCTAG: 6.47 z-score
TTAGGTATCATTTTCCTTTAGTGCTAG: 1.94 z-score
AGATTTTTATCAAATGTGGGAGTGCTA: 0.309 z-score
TTAGGACTGGGGACTGCGTTAGTGCTA: -0.395 z-score
TTAAGACTGGGTATCGGTTAGTGCTAG: 5.04 z-score

Repeated from above (study 1):
GCGCCATA: 0.21
TGCATAAA: -0.161
ACTTCAGG: -0.107
ACTAGCCG: 0.232
CCTGTTCA: -0.232
GAAATTTA: -0.127
TATGTTCA: -0.0066
AATTTACG: 0.0672
ACATAAAG: -0.202
